Results gathered from unrelated publications.
Every numbered part comes from another study and shows a few of its results, in no order. Substitutions count along the parent as printed.

Study 1
Target: ABI1, truncated, D143A, DHFR fusion (Arabidopsis thaliana)
Method: DHFR PCA, deep sequencing
Medium: yeast
Setting: methotrexate growth selection, single substitutions
Together with: (+)-ABA 4.8 µM
Reference: wild-type fitted maximum
Direction: higher = stronger binding
Endpoint: relative binding score
Parent: PYL1, truncated, DHFR fusion (Arabidopsis thaliana); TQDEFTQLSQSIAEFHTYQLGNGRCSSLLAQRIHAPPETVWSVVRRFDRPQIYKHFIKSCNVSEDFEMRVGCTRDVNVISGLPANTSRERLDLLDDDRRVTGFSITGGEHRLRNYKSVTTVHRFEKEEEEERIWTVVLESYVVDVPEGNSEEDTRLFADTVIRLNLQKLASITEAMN; partner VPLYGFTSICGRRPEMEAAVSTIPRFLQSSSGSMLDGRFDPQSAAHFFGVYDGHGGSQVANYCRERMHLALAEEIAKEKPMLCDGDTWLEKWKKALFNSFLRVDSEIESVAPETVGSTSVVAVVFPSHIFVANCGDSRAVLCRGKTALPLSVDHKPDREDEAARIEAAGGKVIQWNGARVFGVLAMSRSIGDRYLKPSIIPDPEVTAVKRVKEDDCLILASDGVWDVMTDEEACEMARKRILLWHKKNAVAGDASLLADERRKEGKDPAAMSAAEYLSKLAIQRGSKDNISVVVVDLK
V70R: 26%
G107T: 1.46%
S9G: 70.8%
T173H: -6.12%

Study 2
Target: CCND2, cyclin fold, Cln2 fusion (human)
Method: yeast growth competition, sequencing
Medium: yeast
Setting: strong parent motif
Reference: not given
Direction: higher = stronger binding
Endpoint: normalised enrichment score
Parent: PKN2 docking peptide (human); VSAVRKLDFSDTM; partner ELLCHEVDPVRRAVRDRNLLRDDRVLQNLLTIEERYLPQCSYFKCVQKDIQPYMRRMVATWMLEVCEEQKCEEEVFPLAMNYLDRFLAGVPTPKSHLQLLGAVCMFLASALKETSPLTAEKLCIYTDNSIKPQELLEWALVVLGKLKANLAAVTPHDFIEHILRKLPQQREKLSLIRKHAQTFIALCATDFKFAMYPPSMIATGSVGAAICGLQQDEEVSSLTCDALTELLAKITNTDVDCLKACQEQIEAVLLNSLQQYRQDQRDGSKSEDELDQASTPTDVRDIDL
V4F: 0.625
T12A: 3.66
A3D: -0.0566
K6I: 1.69
V4K: 3.16
S10W: 1.45
L7D: 0.174
L7R: 0.0979

Study 3
Target: Ras GTPase-activating protein-binding protein 1, RRM domain (G3BP1, Homo sapiens, UniProt Q13283)
Chain of UniProt Q13283 (whole entry, looked up): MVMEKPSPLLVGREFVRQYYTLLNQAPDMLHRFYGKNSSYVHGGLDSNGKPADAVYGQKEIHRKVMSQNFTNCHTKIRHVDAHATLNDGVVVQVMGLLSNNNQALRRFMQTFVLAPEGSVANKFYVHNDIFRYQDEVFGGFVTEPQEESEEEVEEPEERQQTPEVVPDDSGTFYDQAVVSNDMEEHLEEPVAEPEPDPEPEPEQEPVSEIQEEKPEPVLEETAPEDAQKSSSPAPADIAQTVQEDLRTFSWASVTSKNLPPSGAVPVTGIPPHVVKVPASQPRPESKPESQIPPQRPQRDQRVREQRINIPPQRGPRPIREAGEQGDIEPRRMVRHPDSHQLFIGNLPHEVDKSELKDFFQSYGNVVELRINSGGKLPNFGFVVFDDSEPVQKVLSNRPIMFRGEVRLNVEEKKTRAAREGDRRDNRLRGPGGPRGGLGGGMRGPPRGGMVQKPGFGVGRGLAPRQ
Method: RNA Bind-n-Seq
Form: RNA
Medium: in vitro
Tested at: 1 µM
Setting: whole 134-nt RNA, ends assumed
Together with: 150 mM KCl
Reference: input library
Direction: higher = stronger binding
Endpoint: log2 enrichment
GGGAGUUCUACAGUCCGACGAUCGUCCUGUGCUACACAUCGUAUGUACCGAAUCGGGAAAAAGGGAAAAAGGGGAAAAAGGAAAGUAUUAUGUUACGCCGUUCGGAUCUGCACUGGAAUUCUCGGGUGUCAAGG: -0.0144
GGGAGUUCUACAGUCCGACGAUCGUCCUGUGCUACACAUCGUAUGUACCGAAUCGGGAAAAAAAGGGAGGGUUUUUUUGGGAAAGUAUUAUGUUACGCCGUUCGGAUCUGCACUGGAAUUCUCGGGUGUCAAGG: 0.229
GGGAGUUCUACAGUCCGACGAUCAGUCCUGUGCUACACAUCGUAUGUACCGAAUCGGGGUGGGGAAAAAAAGGGGAGGGGAAAGUAUUAUGUUACGCCGUUCGGAUCUGCACUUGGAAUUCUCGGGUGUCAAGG: 1.07
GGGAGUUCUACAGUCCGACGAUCUCCUGUGCUACACAUCGUAUGUACCGAAUCGGGGCCCCCCGGCCCCCCGGGCCCCCCGGGAAAGUAUUAUGUUACGCCGUUCGGAUCUGCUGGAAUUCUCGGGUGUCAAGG: -0.375
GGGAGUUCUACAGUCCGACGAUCUCGCCCUGGUGGCAUGCGGGGAGGAAGAGGUGGCCUCAUGGAUCGUGGUGGUCCCGGUGGAAUGUUCAGAGGUGGCCGUGGUGGAGACAGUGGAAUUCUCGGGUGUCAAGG: 0.733
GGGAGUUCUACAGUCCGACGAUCCACAGACAACACAAACCCACACAGACACAGAGGGAAGGGGUUGGGAUGGGGACAGGGUGCACAGCAGGGCGGGGUAGGACCCCAGCCCCUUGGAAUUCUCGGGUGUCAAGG: -0.217
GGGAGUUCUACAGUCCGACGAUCCACAGACAACACGCACCCACACAGACACAGAGGGAAGGGGUUGGGAUGGGGACGGGGUGCACAGCAGGGCGGGGUAGGACCCCAGCCCCUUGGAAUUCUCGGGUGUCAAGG: 0.124

Other studies, line by line
PhoQ, residues 284 288 289 292 302 303 SMYGEC — fold induction (PhoP, residues 12 14 15 18 19 LHHVQ (Escherichia coli, UniProt P23836); Sort-seq, refers to: YFP reporter; E. coli; PhoQ-PhoP variant library, together with: 10 µM Mg2+; reference: high Mg2+ state, higher = stronger signaling): 6.79

Excerpt of the above (other studies, line by line):
PhoQ, residues 284 288 289 292 302 303 SMYGEC — fold induction (PhoP, residues 12 14 15 18 19 LHHVQ (Escherichia coli, UniProt P23836); Sort-seq, refers to: YFP reporter; E. coli; PhoQ-PhoP variant library, together with: 10 µM Mg2+; reference: high Mg2+ state, higher = stronger signaling): 6.79
